Measurements of several laboratories.
Parts stem from different laboratories: compare values within a part only. Substitutions count along the parent as printed.
Sequence of UniProt Q14012 (whole entry, looked up): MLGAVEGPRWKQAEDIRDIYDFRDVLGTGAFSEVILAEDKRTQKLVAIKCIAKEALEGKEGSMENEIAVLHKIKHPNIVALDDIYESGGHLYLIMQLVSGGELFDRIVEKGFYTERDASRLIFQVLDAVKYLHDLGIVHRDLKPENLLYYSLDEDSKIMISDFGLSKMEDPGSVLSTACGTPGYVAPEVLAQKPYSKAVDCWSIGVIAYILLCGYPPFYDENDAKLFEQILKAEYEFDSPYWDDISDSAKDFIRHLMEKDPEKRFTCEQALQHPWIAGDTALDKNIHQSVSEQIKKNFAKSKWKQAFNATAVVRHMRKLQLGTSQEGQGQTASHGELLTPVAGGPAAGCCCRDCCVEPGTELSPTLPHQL

Series 1
Target: UDP-N-acetylglucosamine--peptide N-acetylglucosaminyltransferase 110 kDa subunit (OGT, Homo sapiens, UniProt O15294)
Observed: binding
Method: phage display NGS
Form: peptide
Tested at: concentration not given
Baseline: input library
Target sequence (O15294 1-1046): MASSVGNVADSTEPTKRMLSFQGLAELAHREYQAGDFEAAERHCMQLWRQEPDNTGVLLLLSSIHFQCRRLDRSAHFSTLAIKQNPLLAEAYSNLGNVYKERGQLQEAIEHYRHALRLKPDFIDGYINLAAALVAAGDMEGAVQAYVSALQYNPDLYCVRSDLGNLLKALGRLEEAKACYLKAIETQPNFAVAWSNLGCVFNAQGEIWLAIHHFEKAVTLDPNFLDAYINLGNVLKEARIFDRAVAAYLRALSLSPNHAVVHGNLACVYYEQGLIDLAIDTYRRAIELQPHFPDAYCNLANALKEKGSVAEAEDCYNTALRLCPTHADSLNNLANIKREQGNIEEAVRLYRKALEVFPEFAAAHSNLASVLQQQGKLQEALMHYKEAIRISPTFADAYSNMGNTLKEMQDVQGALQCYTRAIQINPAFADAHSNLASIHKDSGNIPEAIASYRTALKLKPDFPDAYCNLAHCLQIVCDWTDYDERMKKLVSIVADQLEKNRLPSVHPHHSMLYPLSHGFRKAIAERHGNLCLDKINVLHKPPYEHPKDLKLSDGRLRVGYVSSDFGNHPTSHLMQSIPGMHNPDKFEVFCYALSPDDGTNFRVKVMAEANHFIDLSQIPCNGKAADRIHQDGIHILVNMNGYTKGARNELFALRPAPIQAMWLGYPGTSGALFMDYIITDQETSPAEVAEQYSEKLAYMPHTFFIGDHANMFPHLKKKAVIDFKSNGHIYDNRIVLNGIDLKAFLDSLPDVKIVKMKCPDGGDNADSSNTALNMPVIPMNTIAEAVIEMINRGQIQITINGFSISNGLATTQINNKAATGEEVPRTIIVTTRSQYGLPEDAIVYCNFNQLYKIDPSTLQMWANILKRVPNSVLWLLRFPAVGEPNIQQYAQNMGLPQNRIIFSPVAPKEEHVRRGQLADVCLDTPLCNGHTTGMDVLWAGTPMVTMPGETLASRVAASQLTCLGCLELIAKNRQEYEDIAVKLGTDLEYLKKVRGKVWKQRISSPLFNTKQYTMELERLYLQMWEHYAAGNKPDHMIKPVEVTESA
Sequence | enrichment fold change
GLWPHHDHTHPSTEA | 12.5
SDRTPYTPRYQISY | 2.67
THMHFTDHVNHETHL | 3.08
EIPTVDFHPMYMIKI | 2.71
HRHGWQIHLNDGVW | 3.05
HTPRVDYRFHATHHH | 6.35
HRNTVQHWQQVYPIH | 5.1
FPHHILQHHRQDDFH | 4.95

Series 2
Target: CCNA2, cyclin fold, Cln2 fusion (human)
Method: yeast growth competition, sequencing
Sample: yeast
Setting: strong parent motif
Baseline: not given
Direction: higher = stronger binding
Starting sequence: viral docking peptide; TSVRRALFTGGSD
Change | normalised enrichment score
S2N | 6.35
S2C | 6.3
A6H | 2.73
A6V | 5.44
R4M | 1.49
R4K | 5.12
A6T | 5.1
L7T | 0.375

Series 3
Target: vanadate, free oxyanion
Method: microfluidic competitive inhibition
Sample: in vitro, cell-free expressed
Tested at: not given
Setting: derived from inhibition constants, unchanged parent 676 nM
Direction: lower = stronger binding
Starting sequence: PafA, mature enzyme, eGFP fusion (Elizabethkingia meningoseptica, UniProt Q9KJX5); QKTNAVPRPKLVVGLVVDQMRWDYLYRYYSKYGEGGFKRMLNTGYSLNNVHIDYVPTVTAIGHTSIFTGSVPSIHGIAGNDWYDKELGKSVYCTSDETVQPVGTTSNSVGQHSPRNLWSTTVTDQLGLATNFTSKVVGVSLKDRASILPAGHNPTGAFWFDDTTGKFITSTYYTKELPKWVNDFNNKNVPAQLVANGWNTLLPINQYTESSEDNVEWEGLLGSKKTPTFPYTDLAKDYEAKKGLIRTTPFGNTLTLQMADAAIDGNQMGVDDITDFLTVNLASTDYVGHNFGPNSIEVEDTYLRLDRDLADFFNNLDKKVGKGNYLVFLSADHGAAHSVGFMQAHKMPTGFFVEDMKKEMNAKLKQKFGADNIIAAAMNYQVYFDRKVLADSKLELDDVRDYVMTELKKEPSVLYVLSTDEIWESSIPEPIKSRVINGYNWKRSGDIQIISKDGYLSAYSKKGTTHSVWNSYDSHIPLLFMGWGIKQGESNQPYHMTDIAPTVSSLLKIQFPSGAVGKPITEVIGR
Change | oxyanion analog dissociation constant
E239G | 621 nM
H495G | 548 nM
N280G | 1.34 µM
G243V | 491 nM
L507G | 1.18 µM
M481G | 996 nM
E34V | 649 nM
K225G | 568 nM

Other studies, line by line
Compound | target | observed | mode | endpoint | result
CNC(=O)c1ccc(-c2cnn3ccc(C(=O)N(C)c4ccc(Cl)c(C(=O)OC)c4)cc23)cc1 | Calcium/calmodulin-dependent protein kinase type 1 (CAMK1, Homo sapiens, UniProt Q14012) | enzyme activity | inhibitor | IC50 | > 30 µM
